# Published values collected from several papers.
# Each numbered part is a random draw from the data of one study; scales do not carry over between parts.
# Sequence of UniProt Q9UEE5 (whole entry, looked up): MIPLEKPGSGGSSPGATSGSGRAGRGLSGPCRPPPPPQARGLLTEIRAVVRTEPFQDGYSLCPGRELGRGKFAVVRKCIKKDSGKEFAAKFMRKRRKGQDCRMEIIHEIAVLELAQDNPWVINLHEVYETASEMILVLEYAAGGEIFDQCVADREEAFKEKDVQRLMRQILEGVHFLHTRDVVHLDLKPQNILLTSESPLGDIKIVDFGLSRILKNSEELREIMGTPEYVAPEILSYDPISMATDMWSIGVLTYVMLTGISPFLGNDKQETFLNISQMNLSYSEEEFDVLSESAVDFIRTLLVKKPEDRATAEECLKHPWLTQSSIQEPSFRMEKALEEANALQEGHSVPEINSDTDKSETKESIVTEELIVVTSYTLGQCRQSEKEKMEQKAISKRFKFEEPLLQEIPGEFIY
# Sequence of UniProt P42685 (whole entry, looked up): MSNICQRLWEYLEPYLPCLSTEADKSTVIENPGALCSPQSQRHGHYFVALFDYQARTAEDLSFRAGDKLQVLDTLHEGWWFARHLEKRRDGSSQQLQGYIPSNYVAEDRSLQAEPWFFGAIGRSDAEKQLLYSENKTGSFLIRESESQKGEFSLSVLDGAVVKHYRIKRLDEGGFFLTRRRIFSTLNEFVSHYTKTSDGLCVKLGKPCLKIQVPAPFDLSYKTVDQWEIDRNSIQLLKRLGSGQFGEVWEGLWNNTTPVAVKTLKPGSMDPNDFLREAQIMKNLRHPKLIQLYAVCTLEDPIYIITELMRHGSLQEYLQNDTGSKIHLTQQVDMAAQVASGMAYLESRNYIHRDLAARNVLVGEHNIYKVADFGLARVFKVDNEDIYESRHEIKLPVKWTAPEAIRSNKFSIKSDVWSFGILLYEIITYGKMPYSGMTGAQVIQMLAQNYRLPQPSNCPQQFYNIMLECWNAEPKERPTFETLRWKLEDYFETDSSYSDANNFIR
# Sequence of UniProt Q9BX84 (whole entry, looked up): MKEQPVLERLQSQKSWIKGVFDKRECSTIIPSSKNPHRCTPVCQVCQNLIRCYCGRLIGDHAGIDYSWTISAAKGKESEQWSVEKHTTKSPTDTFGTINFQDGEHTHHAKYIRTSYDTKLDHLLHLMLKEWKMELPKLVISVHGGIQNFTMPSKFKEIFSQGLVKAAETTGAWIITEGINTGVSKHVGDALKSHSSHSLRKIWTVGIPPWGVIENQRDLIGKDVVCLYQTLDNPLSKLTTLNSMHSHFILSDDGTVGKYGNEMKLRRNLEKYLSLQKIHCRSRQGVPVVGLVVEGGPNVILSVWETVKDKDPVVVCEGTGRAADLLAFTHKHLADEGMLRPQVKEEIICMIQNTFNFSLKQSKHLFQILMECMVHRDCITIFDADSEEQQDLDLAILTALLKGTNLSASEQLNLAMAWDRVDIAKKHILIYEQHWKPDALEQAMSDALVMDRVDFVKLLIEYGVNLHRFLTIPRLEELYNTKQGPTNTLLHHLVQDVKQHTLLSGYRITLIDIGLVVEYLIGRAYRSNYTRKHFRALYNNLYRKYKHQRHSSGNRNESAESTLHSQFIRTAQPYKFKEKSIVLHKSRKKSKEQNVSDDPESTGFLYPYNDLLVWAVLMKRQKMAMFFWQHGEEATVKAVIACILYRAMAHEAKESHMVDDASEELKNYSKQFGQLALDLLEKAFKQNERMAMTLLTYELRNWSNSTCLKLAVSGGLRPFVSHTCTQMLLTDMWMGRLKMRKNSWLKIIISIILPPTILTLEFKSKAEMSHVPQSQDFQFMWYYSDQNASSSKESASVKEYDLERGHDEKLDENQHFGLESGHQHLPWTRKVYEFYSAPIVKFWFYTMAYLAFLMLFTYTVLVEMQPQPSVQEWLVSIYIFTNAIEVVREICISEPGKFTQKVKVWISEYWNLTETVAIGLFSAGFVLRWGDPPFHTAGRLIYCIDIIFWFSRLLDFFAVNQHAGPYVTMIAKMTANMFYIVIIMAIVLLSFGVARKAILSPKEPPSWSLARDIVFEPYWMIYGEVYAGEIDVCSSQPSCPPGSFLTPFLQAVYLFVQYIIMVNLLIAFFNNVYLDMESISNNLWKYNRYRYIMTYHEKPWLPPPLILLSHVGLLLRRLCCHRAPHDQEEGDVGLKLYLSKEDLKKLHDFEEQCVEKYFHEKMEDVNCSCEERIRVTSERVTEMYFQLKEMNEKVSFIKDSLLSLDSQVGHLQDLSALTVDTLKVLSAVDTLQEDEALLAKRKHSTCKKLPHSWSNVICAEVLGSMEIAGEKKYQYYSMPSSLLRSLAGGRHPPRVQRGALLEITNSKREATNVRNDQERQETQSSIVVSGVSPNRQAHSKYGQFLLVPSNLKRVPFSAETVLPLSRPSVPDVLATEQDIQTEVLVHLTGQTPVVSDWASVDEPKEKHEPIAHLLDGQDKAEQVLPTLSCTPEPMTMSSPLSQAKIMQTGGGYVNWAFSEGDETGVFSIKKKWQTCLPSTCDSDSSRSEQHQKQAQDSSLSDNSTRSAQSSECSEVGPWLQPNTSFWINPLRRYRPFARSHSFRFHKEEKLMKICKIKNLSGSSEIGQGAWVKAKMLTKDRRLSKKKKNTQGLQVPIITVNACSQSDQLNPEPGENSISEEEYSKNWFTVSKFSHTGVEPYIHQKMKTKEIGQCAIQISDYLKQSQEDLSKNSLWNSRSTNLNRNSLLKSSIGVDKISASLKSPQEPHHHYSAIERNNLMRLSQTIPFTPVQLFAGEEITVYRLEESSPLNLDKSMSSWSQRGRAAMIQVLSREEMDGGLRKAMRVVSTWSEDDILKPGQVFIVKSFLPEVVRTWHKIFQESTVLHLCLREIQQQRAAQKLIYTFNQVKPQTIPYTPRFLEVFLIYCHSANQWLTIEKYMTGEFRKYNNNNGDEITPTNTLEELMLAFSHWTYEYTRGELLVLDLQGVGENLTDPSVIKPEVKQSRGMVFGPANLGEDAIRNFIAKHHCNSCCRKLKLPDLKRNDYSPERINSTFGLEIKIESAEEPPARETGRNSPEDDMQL
# Sequence of UniProt P54764 (whole entry, looked up): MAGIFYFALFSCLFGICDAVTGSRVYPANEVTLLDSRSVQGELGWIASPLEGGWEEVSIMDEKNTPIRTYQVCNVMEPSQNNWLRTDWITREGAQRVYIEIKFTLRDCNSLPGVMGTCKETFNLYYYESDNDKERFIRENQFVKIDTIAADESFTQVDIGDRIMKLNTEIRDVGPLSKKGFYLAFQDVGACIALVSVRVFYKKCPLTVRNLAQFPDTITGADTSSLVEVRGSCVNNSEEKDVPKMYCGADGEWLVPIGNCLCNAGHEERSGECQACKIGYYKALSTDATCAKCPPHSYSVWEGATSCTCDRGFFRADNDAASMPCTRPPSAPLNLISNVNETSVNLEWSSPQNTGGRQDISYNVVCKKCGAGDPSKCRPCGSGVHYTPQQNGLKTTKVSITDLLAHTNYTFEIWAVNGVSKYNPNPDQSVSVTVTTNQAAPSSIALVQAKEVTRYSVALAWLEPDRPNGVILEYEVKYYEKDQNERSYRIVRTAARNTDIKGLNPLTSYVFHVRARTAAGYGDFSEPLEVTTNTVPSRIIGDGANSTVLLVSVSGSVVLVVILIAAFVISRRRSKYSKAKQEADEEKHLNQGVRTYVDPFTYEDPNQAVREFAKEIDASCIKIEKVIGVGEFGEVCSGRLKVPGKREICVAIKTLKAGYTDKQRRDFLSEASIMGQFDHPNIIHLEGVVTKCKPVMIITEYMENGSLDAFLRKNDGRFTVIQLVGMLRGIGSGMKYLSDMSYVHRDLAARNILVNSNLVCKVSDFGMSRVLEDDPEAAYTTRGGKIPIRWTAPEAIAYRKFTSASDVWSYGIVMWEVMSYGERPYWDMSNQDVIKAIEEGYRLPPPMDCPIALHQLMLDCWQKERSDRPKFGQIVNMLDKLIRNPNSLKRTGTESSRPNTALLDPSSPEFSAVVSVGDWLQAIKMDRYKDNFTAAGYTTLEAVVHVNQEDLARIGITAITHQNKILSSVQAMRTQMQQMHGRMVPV
# Sequence of UniProt Q15569 (whole entry, looked up): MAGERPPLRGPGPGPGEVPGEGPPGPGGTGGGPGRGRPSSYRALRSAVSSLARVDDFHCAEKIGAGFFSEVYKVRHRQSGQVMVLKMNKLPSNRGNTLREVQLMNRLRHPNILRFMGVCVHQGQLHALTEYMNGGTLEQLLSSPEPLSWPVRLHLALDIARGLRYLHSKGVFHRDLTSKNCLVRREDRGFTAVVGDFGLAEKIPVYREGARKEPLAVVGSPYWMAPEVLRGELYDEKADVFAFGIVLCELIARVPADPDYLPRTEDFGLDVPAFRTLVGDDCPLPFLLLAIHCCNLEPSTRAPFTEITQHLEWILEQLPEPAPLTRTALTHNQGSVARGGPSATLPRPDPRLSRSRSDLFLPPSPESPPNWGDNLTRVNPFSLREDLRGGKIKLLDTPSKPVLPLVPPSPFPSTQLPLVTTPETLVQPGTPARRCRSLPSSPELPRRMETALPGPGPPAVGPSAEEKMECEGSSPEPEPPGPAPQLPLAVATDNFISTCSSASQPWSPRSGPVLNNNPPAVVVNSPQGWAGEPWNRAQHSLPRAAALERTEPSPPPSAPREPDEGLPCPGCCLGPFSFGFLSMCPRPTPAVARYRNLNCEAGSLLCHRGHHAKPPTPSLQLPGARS

# Set 1 — host: human; matrix: microsomes or S9; tested at: 2 µM; time: 0.5 h
SMILES,remaining compound
COc1ccc(N2CC(C(=O)N3CCc4cc(-c5ccno5)ccc43)CC2=O)cc1 (stereo not drawn),73.3%
Fc1ccc(Nc2c(-c3ccccc3)nc3ccccn23)cc1,70.3%
Cn1c(Nc2ccccc2Cl)cc(=O)n(C)c1=O,92.5%
COc1cc2c(cc1OC)C1(c3ccc4c(c3)OCO4)OC(=O)C(=O)N1CC2 (stereo not drawn),7.15%
C[C@@H](c1ccccc1)N1C(=O)OC[C@H]1CN1CCCC1CO (stereo partly drawn),77.3%
CCOC(=O)Cn1cnc2c1c(=O)n(C)c(=O)n2C,2.05%

# Set 2 — effect on: cell-free assay; method: competition with immobilised ligand; tested at: 1 µM
# Compound: CCc1ccccc1C(=O)Nc1n[nH]c2c(C)c(F)c(C3C(C#N)=C(C)N(C)C(C)=C3C#N)cc12
target,remaining binding
"Tyrosine-protein kinase FRK (FRK, Homo sapiens, UniProt P42685)",100%
"Serine/threonine-protein kinase 17A (STK17A, Homo sapiens, UniProt Q9UEE5)",89%
"Dual specificity testis-specific protein kinase 1 (TESK1, Homo sapiens, UniProt Q15569)",96%
"Eukaryotic translation initiation factor 2-alpha kinase 1 (EIF2AK1, Homo sapiens, UniProt Q9BQI3)",100%
"Ephrin type-A receptor 4 (EPHA4, Homo sapiens, UniProt P54764)",100%
"Transient receptor potential cation channel subfamily M member 6 (TRPM6, Homo sapiens, UniProt Q9BX84)",100%

# Set 3 — effect on: enzyme activity; mode: inhibitor; tested at: 0.5 µM; reference: control
# Target: Serine/threonine-protein kinase OSR1 (OXSR1, Homo sapiens, UniProt O95747)
# Sequence of UniProt O95747 (whole entry, looked up): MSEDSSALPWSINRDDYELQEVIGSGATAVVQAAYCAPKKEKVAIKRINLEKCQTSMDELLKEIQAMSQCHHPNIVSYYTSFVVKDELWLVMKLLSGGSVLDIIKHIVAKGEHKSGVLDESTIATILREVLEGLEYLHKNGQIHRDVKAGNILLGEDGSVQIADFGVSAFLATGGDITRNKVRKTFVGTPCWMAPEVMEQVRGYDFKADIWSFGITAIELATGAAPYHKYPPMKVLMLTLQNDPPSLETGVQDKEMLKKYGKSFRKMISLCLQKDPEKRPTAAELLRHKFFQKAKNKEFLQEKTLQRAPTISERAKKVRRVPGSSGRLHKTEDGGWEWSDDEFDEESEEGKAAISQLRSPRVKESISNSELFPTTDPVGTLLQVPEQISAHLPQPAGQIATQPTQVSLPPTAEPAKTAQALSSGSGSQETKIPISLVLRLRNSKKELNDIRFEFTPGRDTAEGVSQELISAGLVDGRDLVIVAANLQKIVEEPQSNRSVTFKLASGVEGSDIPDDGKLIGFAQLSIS
SMILES,remaining activity [%]
O=C1NC(=O)C(c2cn(CCCn3ccnc3)c3ccccc23)=C1Nc1ccccc1,97.2
COc1ccc(C(=O)Nc2sc3c(c2C(N)=O)CCCC3)cc1OC,99.9
Nc1ccc2ncnc(NCCc3ccc(Oc4ccccc4)cc3)c2c1,101
CCOC(=O)c1c(C)[nH]c(/C=C2\C(=O)Nc3ccccc32)c1C,87.9
CO[C@H]1C[C@@H]2CC[C@@H](C)[C@@](O)(O2)C(=O)C(=O)N2CCCC[C@H]2C(=O)O[C@H]([C@H](C)C[C@@H]2CC[C@@H](O)[C@H](OC)C2)CC(=O)[C@H](C)/C=C(\C)[C@@H](O)[C@@H](OC)C(=O)[C@H](C)C[C@H](C)/C=C/C=C/C=C/1C,96.6
O=C(CCCc1ccc(-c2ccccc2F)cc1)Nc1ccc(O)cc1,102
O=C1NC(=O)C(c2cn(CCCO)c3ncccc23)=C1c1cnccn1,101
COc1cc2ncnc(Nc3ccc(Oc4ccccc4)cc3)c2cc1OC,97.5
OCC(O)CCON=C1C(c2c(O)[nH]c3ccccc23)=Nc2ccccc21 (stereo not drawn),98.6
C#Cc1cccc(Nc2ncnc3cc(OCCOC)c(OCCOC)cc23)c1,102

# Set 4 — effect on: AlphaScreen signal; method: AlphaScreen counter screen; matrix: His6 peptide without bromodomain; tested at: 50 µM; notes: assay interference check
SMILES,inhibition [%]
O=C(NCc1ccco1)C(=O)c1cn(CC(=O)N2CCOCC2)c2ccccc12,22.9
O=S(=O)(c1cccc2c(I)cccc12)N1CCCNCC1,20.3
NCCNc1nc(-c2ccccc2O)nc2ccccc12,26.4
COC(=O)Cn1cc(C=C2SC(=O)NC2=O)c2ccccc21,6.35
O=c1c(-c2ccc(O)cc2)coc2cc(O)cc(O)c12.O=c1c(-c2ccc(O)cc2)coc2cc(O)cc(O)c12,14.2
